Results collected from several papers.
Protocols differ between the studies behind these lines. ± marks the error that the study gave. In brackets after ≈: the same amount, converted by molar mass.

SMILES	assay	test system	setting	how to read	quantity	value
CC(C)CCN(c1nc(C#N)nc(NC2COC2)n1)C(C)c1ccc(F)cc1 (stereo not shown)	–	water	–	–	thermodynamic solubility	42 µM (≈ 16.1 µg/mL)
CCCC(CCC)NC(=O)c1ccc(O)c(O)c1	LC-MS	human liver microsomes	10 µM of parent drug, 60 min, pH 7.4, together with: NADPH	relative to: parent drug at time zero	metabolite peak area	~15.2%
O=C(CCCCC[N+]#[C][99Tc-5]([C]#[N+]CCCCCC(=O)N[C@H]1C(O)O[C@H](CO)[C@@H](O)[C@@H]1O)([C]#[N+]CCCCCC(=O)N[C@H]1C(O)O[C@H](CO)[C@@H](O)[C@@H]1O)([C]#[N+]CCCCCC(=O)N[C@H]1C(O)O[C@H](CO)[C@@H](O)[C@@H]1O)([C]#[N+]CCCCCC(=O)N[C@H]1C(O)O[C@H](CO)[C@@H](O)[C@@H]1O)[C]#[N+]CCCCCC(=O)N[C@H]1C(O)O[C@H](CO)[C@@H](O)[C@@H]1O)N[C@H]1C(O)O[C@H](CO)[C@@H](O)[C@@H]1O (stereo partly shown)	biodistribution	BALB/c nude mouse TE-1 xenograft	–	relative to: kidney over tumour	kidney/tumour ratio	1.97
CCn1c(=O)n(CCO)c(=O)c2c1nc(/C=C/c1ccc(OC)c(OC)c1)n2C	–	healthy humans, plasma	oral, 40 mg, together with: rifampin 600 mg/day	–	metabolite to parent AUCinf ratio	0.0785
Cc1ccccc1/N=N/c1ccc(/N=N/c2c(O)ccc3ccccc23)c(C)c1	–	Sprague-Dawley rats both sexes, whole blood	oral, 50 mg/kg	–	elimination rate constant	8.14e-05 s⁻¹
CC(=O)[CH](C(C)=O)[Pt-2]1([S+](C)C)[O]C(C)=CC(C)=[O+]1 (stereo not shown)	–	rat, blood	intravenous, 20 mg/kg, single dose	–	creatinine	0.45 ± 0.06 mg/dL
CC(C)[C@H](NC(=O)CNC(=O)[C@H](CCC(N)=O)NC(=O)[C@H](C)N)C(=O)O	LC-MS/MS	human, male, plasma	intravenous, 10 mg/kg three times daily, day 2, first dose, 10 min infusion, geometric mean	–	volume of distribution	4 L/kg
CCCC[C@H](NC(=O)CNC(=O)CNC(=O)CN1CCN(CC(=O)O)CCN(CC(=O)O)CC1)C(=O)N[C@H]1CC(=O)NCCCC[C@@H](C(N)=O)NC(=O)[C@H](Cc2c[nH]c3ccccc23)NC(=O)[C@H](CCCNC(=N)N)NC(=O)[C@@H](Cc2ccccc2)NC(=O)[C@H](Cc2c[nH]cn2)NC1=O [gallium-67 labelled]	–	female C57 mice, B16/F1 melanoma	intravenous, 0.037 MBq, 24 h	relative to: tumour over liver	tumour to tissue ratio	15.8
COc1cc(NC(C)=O)c2c(c1O)-c1c(OC)c(OC)cc3c1C(C2)N(C)CC3 (stereo not shown)	–	rat kidney homogenate	50 µg/mL, 4 h, room temperature, short-term storage	–	remaining compound	91.7 ± 2%
CCCC[C@H](NC(=O)CNC(=O)CNC(=O)CN1CCN(CC(=O)O)CCN(CC(=O)O)CCN(CC(=O)O)CC1)C(=O)N[C@H]1CC(=O)NCCCC[C@@H](C(N)=O)NC(=O)[C@H](Cc2c[nH]c3ccccc23)NC(=O)[C@H](CCCNC(=N)N)NC(=O)[C@@H](Cc2ccccc2)NC(=O)[C@H](Cc2c[nH]cn2)NC1=O [copper-64 labelled]	–	female C57 mouse, B16/F1 melanoma	intravenous, 0.037 MBq, 24 h	relative to: tumour over kidneys	uptake ratio	1.11
Cn1c(=O)oc2ccc(-c3ccc(CC(C#N)NC(=O)C4CNCCCO4)c(F)c3)cc21 (stereo not shown)	–	human	oral, 10 mg once daily, TEAE, multiple ascending dose	–	monocyte count increased incidence	11.1%
O=C([O-])CN1CCN(CC(=O)[O-])CCN(CC(=O)NCCc2ccc3c(c2)C2C=CCC2C(c2cc4c(cc2Br)OCO4)N3)CCN(CC(=O)[O-])CC1.[111In+3] (stereo not shown)	–	mouse, Hec50 endometrial tumour, small intestine	1 h post injection	–	tissue uptake	19.4 ± 5.22 %ID/g
CCCC[C@H](NC(=O)[C@H](C)NC(=O)[C@H](CO)NC(=O)[C@H](CC(C)C)NC(=O)[C@H](CCCCN)NC(=O)[C@]1(C)CCCC=CCCCCCC[C@@](C)(NC(=O)[C@H](CCC(=O)O)NC(=O)[C@H](CC(C)C)NC(=O)[C@H](CO)NC(=O)[C@H](CCC(N)=O)NC(=O)[C@@H](NC(=O)[C@H](CCCC)NC(=O)[C@H](CCC(=O)O)NC(=O)[C@H](CCCNC(=N)N)NC(=O)[C@H](CCC(N)=O)NC(=O)[C@H](CC(C)C)NC(=O)[C@H](CC(C)C)NC(=O)[C@H](CS)NC(=O)[C@H](CCC(N)=O)NC(=O)[C@H](C)NC(=O)[C@H](CCCNC(=N)N)NC(C)=O)C(C)C)C(=O)N[C@@H](CCC(N)=O)C(=O)N[C@@H](CC(C)C)C(=O)N[C@@H](C(C)C)C(=O)N[C@@H](CC(C)C)C(=O)N[C@@H](CCC(=O)O)C(=O)N[C@@H](CCCCN)C(=O)N1)C(=O)N[C@@H](CCC(N)=O)C(=O)N[C@@H](C)C(=O)N[C@@H](Cc1c[nH]cn1)C(N)=O	circular dichroism	sodium acetate buffer	2.5 to 10 µM, pH 3.6, 20 °C	–	alpha-helicity	67%
Nc1ncnc(NCC2CCN(C(=O)C(O)CO)CC2)c1-c1ccc(Oc2ccccc2)cc1 (stereo not shown)	–	healthy male human, plasma	oral, 75 mg evobrutinib	relative to: metabolite over evobrutinib	AUC(0-24) ratio	202%
CCCC[C@H](NC(=O)[C@H](C)NC(=O)[C@H](CO)NC(=O)[C@H](CC(C)C)NC(=O)[C@H](CCCCN)NC(=O)[C@]1(C)CCCC=CCCCCCC[C@@](C)(NC(=O)[C@H](CCC(=O)O)NC(=O)[C@H](CC(C)C)NC(=O)[C@]2(C)CCCC=CCCCCCC[C@@](C)(NC(=O)[C@H](CC(C)C)NC(=O)[C@H](CS)NC(=O)[C@H](CCC(N)=O)NC(=O)[C@H](C)NC(=O)[C@H](CCCNC(=N)N)NC(C)=O)C(=O)N[C@@H](CCC(N)=O)C(=O)N[C@@H](CCCNC(=N)N)C(=O)N[C@@H](CCC(=O)O)C(=O)N[C@@H](CCCC)C(=O)N[C@@H](C(C)C)C(=O)N[C@@H](CCC(N)=O)C(=O)N2)C(=O)N[C@@H](CCC(N)=O)C(=O)N[C@@H](CC(C)C)C(=O)N[C@@H](C(C)C)C(=O)N[C@@H](CC(C)C)C(=O)N[C@@H](CCC(=O)O)C(=O)N[C@@H](CCCCN)C(=O)N1)C(=O)N[C@@H](CCC(N)=O)C(=O)N[C@@H](C)C(=O)N[C@@H](Cc1c[nH]cn1)C(N)=O	circular dichroism	sodium acetate buffer	2.5 to 10 µM, pH 3.6, 20 °C	–	alpha-helicity	74%
C=CC(=O)Nc1cc(Nc2nccc(-c3cn(C)c4ccccc34)n2)c(OC)cc1N(C)CCNC	UHPLC-MS/MS	human, NSCLC patients, plasma	oral, 80 mg daily, steady state, at least 14 d treatment	–	median trough concentration	18 ng/mL
